# Assay results pooled from the literature.
# Each numbered part is a random draw from the data of one study; scales do not carry over between parts.

# Study 1
# Target: Fragile X messenger ribonucleoprotein 1, C-terminal low-complexity region (Fmr1, Mus musculus, UniProt P35922)
# Technique: RNA Bind-n-Seq
# Molecule type: RNA
# Medium: in vitro
# Tested at: 200 nM
# Notes: whole 134-nt RNA, ends assumed
# Together with: 150 mM LiCl
# Relative to: input library
# Reading: higher = stronger binding
# Each molecule: 7-deaza-guanosine replaces G
Oligonucleotide,log2 enrichment
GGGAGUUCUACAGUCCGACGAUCCACAGACAACACGCACCCACACAGACACAGAGGGAAGGGGUUGUGAUGGGGACAGGGUGCACAGCAGGGCGGGGUAGGACCCCAGCCCCUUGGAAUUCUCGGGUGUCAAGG,-1.45
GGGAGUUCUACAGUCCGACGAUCAAGUCCUGUGCUACACAUCGUAUGUACCGAAUCGGGGAAAGGGAAAGGGAAAGGGGAAAGUAUUAUGUUACGCCGUUCGGAUCUGCACUUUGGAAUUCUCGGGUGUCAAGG,0.313
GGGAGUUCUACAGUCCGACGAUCAGUCCUGUGCUACACAUCGUAUGUACCGAAUCGGUUUUUUUGGAAAAAGGUUUUUGGAAAGUAUUAUGUUACGCCGUUCGGAUCUGCACUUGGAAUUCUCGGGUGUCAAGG,-3.56
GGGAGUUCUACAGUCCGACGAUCAGUCCUGUGCUACACAUCGUAUGUACCGAAUCGGAAAAAGGAAAAAGGGGAAAAAGGGAAAGUAUUAUGUUACGCCGUUCGGAUCUGCACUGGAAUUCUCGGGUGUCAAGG,-0.839
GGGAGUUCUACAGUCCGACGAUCUGUGCUACACAUCGUAUGUACCGAAUCGGGGUUUUUUUGGGGUUUUUGGGGAAAAAAAGGGGAAAGUAUUAUGUUACGCCGUUCGGAUCUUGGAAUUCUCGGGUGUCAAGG,-0.296
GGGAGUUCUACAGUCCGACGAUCACCAUGCAGGUGGGCAUCAUUGGGAAGUGGGGCAAGGGGGGGAUAGGGAGGGGGGUAACACUUUGGGAACAGGUGGUCCCAGGUCGUUUCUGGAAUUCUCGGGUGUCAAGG,1.31
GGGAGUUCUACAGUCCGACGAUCAAGUCCUGUGCUACACAUCGUAUGUACCGAAUCGGGUUUUGGUUUUGGGGUUUUGGAAAGUAUUAUGUUACGCCGUUCGGAUCUGCACUUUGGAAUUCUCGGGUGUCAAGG,-1.89
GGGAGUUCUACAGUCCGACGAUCAAGUCCUGUGCUACACAUCGUAUGUACCGAAUCGGGGAAAGGGGAGGGGAAAGGGGAAAGUAUUAUGUUACGCCGUUCGGAUCUGCACUUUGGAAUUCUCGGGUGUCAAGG,0.842
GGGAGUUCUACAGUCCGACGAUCGUCCUGUGCUACACAUCGUAUGUACCGAAUCGGGGUUUUUGGGUUUUUGGUUUUUGGGAAAGUAUUAUGUUACGCCGUUCGGAUCUGCACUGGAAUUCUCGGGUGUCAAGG,-1.47
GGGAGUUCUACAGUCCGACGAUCACCAUGCAGGUGGGCAUCUUUGGGAAGUGGGGCAAGGGGGGGAUAGGGGGGGGGGUAACACUUUGGGAACAGGUGGUCCCAGGUCGUUUCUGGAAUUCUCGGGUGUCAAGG,1.46
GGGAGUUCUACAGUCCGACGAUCUAACUUUAGAGGAGGAUCUGAUGGAUAUGGCAGUGGACGUGGAUUUGGGGAUGGCUAUCAUGGGUAUGGAGGAGGACCUGGAGGUGGCAAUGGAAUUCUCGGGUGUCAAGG,-0.0764

# Study 2
# Target: RNA binding protein fox-1 homolog 2, RRM domain, GST-SBP tag (RBFOX2, Homo sapiens, UniProt O43251-10, residues 100-194)
# Technique: RNA Bind-n-Seq
# Molecule type: RNA
# Medium: in vitro
# Tested at: 365 nM
# Notes: natural RNA segment, single round, ends assumed
# Relative to: no-protein control
# Reading: higher = stronger binding
# Target sequence (chain): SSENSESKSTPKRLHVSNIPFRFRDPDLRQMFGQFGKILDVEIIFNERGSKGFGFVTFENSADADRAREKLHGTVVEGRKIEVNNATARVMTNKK
Oligonucleotide,RBNS enrichment (R)
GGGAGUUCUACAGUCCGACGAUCUGAUUUGAUUUCCUGCCCUGGUUUUGAAGGUCCAUUUUUUUCCCUUUUGCAUUGACUUGCUUGUUUCCCCUUUGAAACACCUAAAAAUACCUUUCCAAAACAUCGCGAGAUGGAAUUCUCGGGUGCCAA,0.721
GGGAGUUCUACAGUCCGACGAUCCCUCCGACACCCAUCCCACUCCCAACCACCAAGACCCUGGGUUAGGGAAGAAGUUGUAUCUUAAGUGCCACCUUCAAGUUUCUUAGUGGUGCCUGGUGCAUUCCGAGGCUUGGAAUUCUCGGGUGCCAA,0.586
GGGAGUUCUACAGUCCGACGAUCUGGGUAGAGCCGUGCCUCUUGGGCAGGCUCCCAUAGUGACCACGUCCCCACGAAUGGGAAAGCACGUUAGUGGGAGGGACGUAGGACACGUGUGGACCGCCAGGCCCUCUUGGAAUUCUCGGGUGCCAA,0.601
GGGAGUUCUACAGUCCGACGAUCCCCAAAGCAGUCAUGGUGCACAUCCUAACUUUGGGGUUGGCGGUGAGCCGGCCCCACUCUCUGGGUCACCUGACUUUGCUCCCGACGACUCGGCUCCCUGCCGAGGCUCAUGGAAUUCUCGGGUGCCAA,0.209
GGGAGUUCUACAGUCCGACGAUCAAUCAGCAUGCUUGUGCAUUACGUGGAGGUUGGAGGUGUCAUCUUUGUUGGGAUGACUGAUUGGGGCUAUCUGUUGUCAACAAGCGUCGUCUCCACCAUUGUGGAUGGAGUGGAAUUCUCGGGUGCCAA,3.46
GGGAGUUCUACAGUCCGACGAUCUCGGCCCAGAGCUUCCCUUCCGGCUGGCUCUGAACCGUGCGUGGUGCCUACAGCCUGCAGUCUGGAGACAAGCUCUUCCGGAGUGCUCUGGGAGCCAGGCCAGGGUGUGAUGGAAUUCUCGGGUGCCAA,0.23
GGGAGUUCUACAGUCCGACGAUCAUGACAGAGUUAGCCUGUGGCUAUAGGAGAUCAUGUCAUCCAGACCUUUUUGCCCAUCACAUUAACUUUCCUGGAAUAUUGUGCUGCACAGGUAGACCUGAAUCUGCCCAUGGAAUUCUCGGGUGCCAA,0.618
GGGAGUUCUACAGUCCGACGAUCCUUUCUGGGCAGGCAGGCCAUGGGGCAUGGAGGAGGGUGCAAAGAUAUGGGUUGCUGUCUUCUGGCCUCCAGCUGCAUGGAGGCCGGCCCAGGGUCUAGGGUGUGCACUGUGGAAUUCUCGGGUGCCAA,1.43
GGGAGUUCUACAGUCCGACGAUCUACAUAUUAGAGAACAAGGAAUGUGUACUUUGGUGGCUUUGAACCAAGAAAAGGUUUUAAGCCUACUGGAUGGAGUCUAAAAUUCUUAGAAAUCAACUUUAGAGCUUUGCUGGAAUUCUCGGGUGCCAA,0.26
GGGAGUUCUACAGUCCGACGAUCUUUCAUUCACUAAUGUUAAGGUUAAUAUGUUUAAGAUCUUGUUUAAAUGAUGUUUCUUCUGCAACUGGCUACUCCUCUUAUAUUAAUGCAUACACUUUUGUAAAGAAGUAUGGAAUUCUCGGGUGCCAA,0.666
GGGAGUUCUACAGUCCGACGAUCCGGUUUUCCAUAGGCAUUAAAGUGCUGAAUGCUCAGUCUGAUCAACAAGUGGGCACCUGCACUACCACUUUUUAGAGGAAAUUCACUCCCUCGUAAGCAUUGGAAGGUCAUGGAAUUCUCGGGUGCCAA,0.343
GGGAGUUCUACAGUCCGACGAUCUGUAAUUGAAUUUGUAUAAUGCAGGCACUUUCUAAUUUAUUAGAGAUUAUGGAUCAGUUCUGACAUUAAAAUCAUAGUUAAUUGAUGGAUGGUUUUUAUAGUUUGUUGAUUGGAAUUCUCGGGUGCCAA,0.993

# Study 3
# Target: Interferon regulatory factor 5, full length, phosphomimetic (IRF5, Homo sapiens, UniProt Q13568-2, residues 1-514, S451D/S453D/S456D/S462D)
# Technique: protein-binding microarray
# Molecule type: double-stranded DNA, one strand shown
# Medium: in vitro
# Tested at: 940 nM top
# Notes: 60-bp whole probe
# Together with: salmon DNA 0.4 mg/ml
# Relative to: random background probes
# Reading: higher = stronger binding
# Constant ends, left off below: GCCTAGCAC … GTCTTGATTCGCTTGACGCTGCTG
Oligonucleotide,fitted relative affinity
GACGGCCTCGGACTGGGGACGTGCTAG,-0.759 z-score
TTAGAACTGAGTTTCGATCAGTGCTAG,7.51 z-score
GACGATAGCGGGACTGGAGACGTGCTA,-0.287 z-score
TTAAGTATCCTTTTCCTTTAGTGCTAG,1.29 z-score
TTAGGTCTCCTTCTCCTGTAGTGCTAG,0.602 z-score
CACCACATTTTTTTCATTATGTGCTAG,1.79 z-score
GACGGACTGGGGTATCGGCACGTGCTA,0.276 z-score
ATGCATGTGCTGTCTCAGAGTGTGCTA,0.169 z-score
TATTGTTTCCTTCCTCTTTTGTGCTAG,2.29 z-score
GACGGTATCTTACTGCTGACGTGCTAG,0.0463 z-score
TTAGATATCAGACTGGATTCGTGCTAG,-0.214 z-score
GACGTTTCCAGTTTCGAGACGTGCTAG,4.26 z-score
TTAGGACTCGGGTATCGGTTAGTGCTA,2.91 z-score
GACGGTTTCTGACTGGGGACGTGCTAG,1.7 z-score
GACGGACTGGGGTTTCGGGGCGTGCTA,1.71 z-score
TTAGGTTTCGACTTTCGCTTAGTGCTA,8.58 z-score
TCAATTTGGCATATCTAACTGTGCTAG,0.0643 z-score

# Study 4
# Molecule: PhoQ, residues 284 288 289 292 302 303 NLGVHL
# Technique: Sort-seq
# Measured: YFP reporter
# Medium: E. coli
# Notes: PhoQ-PhoP variant library
# Together with: 10 µM Mg2+
# Relative to: high Mg2+ state
# Reading: higher = stronger signaling
target,fold induction
"PhoP, residues 12 14 15 18 19 LHHYF (Escherichia coli, UniProt P23836)",0.147
"PhoP, residues 12 14 15 18 19 VGHWL (Escherichia coli, UniProt P23836)",1.87
"PhoP, residues 12 14 15 18 19 NFFVT (Escherichia coli, UniProt P23836)",5.13
"PhoP, residues 12 14 15 18 19 TPWTL (Escherichia coli, UniProt P23836)",7.14

# Repeated from above (study 1):
Oligonucleotide,log2 enrichment
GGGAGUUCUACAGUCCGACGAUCCACAGACAACACGCACCCACACAGACACAGAGGGAAGGGGUUGUGAUGGGGACAGGGUGCACAGCAGGGCGGGGUAGGACCCCAGCCCCUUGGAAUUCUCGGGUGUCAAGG,-1.45
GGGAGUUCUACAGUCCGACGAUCAAGUCCUGUGCUACACAUCGUAUGUACCGAAUCGGGGAAAGGGAAAGGGAAAGGGGAAAGUAUUAUGUUACGCCGUUCGGAUCUGCACUUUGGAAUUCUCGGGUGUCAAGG,0.313
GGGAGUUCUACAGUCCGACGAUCAGUCCUGUGCUACACAUCGUAUGUACCGAAUCGGUUUUUUUGGAAAAAGGUUUUUGGAAAGUAUUAUGUUACGCCGUUCGGAUCUGCACUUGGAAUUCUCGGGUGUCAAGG,-3.56
